Assay results gathered from unrelated publications.
Numbered parts are unrelated; each lists some results of a single study. Changes are numbered by the printed parent chain.

Sample 1 — technique: protein-binding microarray; form: double-stranded DNA, one strand shown; matrix: in vitro; concentration: 940 nM top; notes: 60-bp whole probe; together with: salmon DNA 0.4 mg/ml; reference: random background probes; reading: higher = stronger binding; measurement: fitted relative affinity; constant ends, left off below: GCCTAGCAC … GTCTTGATTCGCTTGACGCTGCTG
Target: Interferon regulatory factor 5, full length, phosphomimetic (IRF5, Homo sapiens, UniProt Q13568-2, residues 1-514, S451D/S453D/S456D/S462D)
Oligonucleotide = GACGAACTGAGTTTCGAGGCGTGCTAG; value = 3.28 z-score
Oligonucleotide = TTTGGTCTCCTTTTCCTTTAGTGCTAG; value = 1.68 z-score
Oligonucleotide = GGAAATTCTCATTTCCAATTGTGCTAG; value = 0.526 z-score
Oligonucleotide = TCAATTTTGTCCTCCCCTACTGTGCTA; value = 0.306 z-score
Oligonucleotide = TCCAACCTGCTGAATCAAAAGTGCTAG; value = -0.00749 z-score
Oligonucleotide = GACGATATCGGGTTTCGGGACGTGCTA; value = 2.56 z-score
Oligonucleotide = GACGGTATCCTTTTCCCGACGTGCTAG; value = 1.21 z-score
Oligonucleotide = CCCCCAGGATTCAATTACCAGTGCTAG; value = 0.255 z-score
Oligonucleotide = GACGGTATCGGGTATCGGGGCGTGCTA; value = 5.9 z-score
Oligonucleotide = GACGATTTCGAGTTTCGAGACGTGCTA; value = 2.93 z-score
Oligonucleotide = GACGCTATCGACACTGGGGACGTGCTA; value = 0.395 z-score
Oligonucleotide = GACGAACGGAGACTGGAGACGTGCTAG; value = -0.518 z-score
Oligonucleotide = GACGAACTGGGGACTGGAGGCGTGCTA; value = -0.219 z-score
Oligonucleotide = GGGCGGGTGCCAACTCTTAGGTGCTAG; value = -0.785 z-score
Oligonucleotide = TTAGGTTTCCCTTTCCTTTAGTGCTAG; value = 2.98 z-score
Oligonucleotide = TCAGCTCTGTGCATAGTACTGTGCTAG; value = -0.269 z-score
Oligonucleotide = TTGAGGTTTTCTCTGGTTCTGTGCTAG; value = 0.327 z-score
Oligonucleotide = TCATTTTTTTCTAACTAACTGTGCTAG; value = 1.32 z-score
Oligonucleotide = TTAGGTCTCGGGTTCGGTTAGTGCTAG; value = 2.51 z-score
Oligonucleotide = GCCGGTCTCCTTTTCCTGACGTGCTAG; value = 0.69 z-score
Oligonucleotide = GACGAACTGAGACTGGGGACGTGCTAG; value = -0.14 z-score
Oligonucleotide = CTGCATCTGATTTCTCAAACAGTGCTA; value = 0.407 z-score
Oligonucleotide = TTAGATTTCAGTATCCATTAGTGCTAG; value = 1.11 z-score
Oligonucleotide = GACGATATCAGGTTTCGAGACGTGCTA; value = 2.32 z-score
Oligonucleotide = TAGTTTTTACTTTCTGAATGGTGCTAG; value = 2.16 z-score

Sample 2 — technique: DHFR PCA, dose-response; matrix: yeast; notes: Hill fit, mean, not affinity; together with: (+)-ABA, dose series; reading: lower = more sensitive; measurement: ABA EC50
Target: ABI1, truncated, D143A, DHFR fusion (Arabidopsis thaliana, UniProt P49597)
Starting sequence: PYL1, truncated, DHFR fusion (Arabidopsis thaliana, UniProt Q8VZS8); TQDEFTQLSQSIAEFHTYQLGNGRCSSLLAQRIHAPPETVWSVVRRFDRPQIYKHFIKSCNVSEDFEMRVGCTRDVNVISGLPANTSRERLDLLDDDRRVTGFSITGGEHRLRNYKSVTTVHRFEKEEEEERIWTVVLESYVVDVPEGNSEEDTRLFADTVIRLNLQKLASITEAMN
Substitution = R163G; value = 8.47 µM
Substitution = A13W; value = 10.1 µM
Substitution = G107Y; value = 147 µM
Substitution = V100H; value = 72.9 µM
Substitution = R24E; value = 2.61 µM
Substitution = R132M; value = 1.95 µM
Substitution = Q51R; value = 369 µM
Substitution = D144C; value = 35.4 µM
Substitution = A30G; value = 4.21 µM
Substitution = Y18M; value = 15.9 µM
Substitution = D92L; value = 99.3 µM
Substitution = S9L; value = 25.3 µM
Substitution = F103H; value = 219 µM
Substitution = L169M; value = 77.1 µM
Substitution = H16N; value = 397 µM
Substitution = A170H; value = 351 µM
Substitution = R90H; value = 18.6 µM
Substitution = E130A; value = 2.7 µM
Substitution = F124H; value = 9.45 µM
Substitution = R99K; value = 2.24 µM
Substitution = R111M; value = 26.3 µM

Sample 3 — target: FOS, bZIP domain (human); technique: DHFR protein complementation; matrix: yeast; reference: wild-type JUN-FOS pair; reading: higher = stronger binding; measurement: binding fitness
Notes: single substitutions, most at no-binding floor
Starting sequence: JUN, bZIP domain (human); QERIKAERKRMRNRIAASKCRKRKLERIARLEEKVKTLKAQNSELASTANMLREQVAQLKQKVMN; partner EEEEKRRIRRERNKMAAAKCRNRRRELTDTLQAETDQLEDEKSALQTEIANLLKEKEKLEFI
Substitution = E54A; value = -0.129 natural log
Substitution = E44S; value = -0.204 natural log
Substitution = S43I; value = -0.0549 natural log
Substitution = K39N; value = -0.612 natural log
Substitution = Q41D; value = -0.204 natural log
Substitution = S47R; value = 0.0761 natural log
Substitution = E32F; value = -0.415 natural log
Substitution = K34E; value = -0.316 natural log
Substitution = S47T; value = -0.0352 natural log
Substitution = Q55M; value = -0.113 natural log
Substitution = R53A; value = -0.369 natural log
Substitution = K36I; value = -0.149 natural log
Substitution = Q41S; value = -1.16 natural log
Substitution = L45R; value = -1.14 natural log
Substitution = A29S; value = -0.101 natural log
Substitution = N42Y; value = -1.03 natural log
Substitution = A46S; value = -0.0883 natural log

Sample 4 — technique: aptamer microarray, sandwich; form: DNA with 2'F-ANA; matrix: in vitro; concentration: 200 nM; together with: Cy3 exosite-II aptamer, 400 nM; reading: higher = stronger binding; measurement: mean fluorescence intensity; oligonucleotide: GGTTGGTGTGGTTGG
Target: Prothrombin, mature alpha-thrombin (F2, Homo sapiens, UniProt P00734)
Notes: whole 15-mer aptamer, many near background
Modification = 2'F-ANA at 1 3 5 6 8 9 10 12 13; value = 50.8 a.u.
Modification = 2'F-ANA at 2 3 5 6 9 11 12 15; value = 150 a.u.
Modification = 2'F-ANA at 1 2 3 4 6 9 10 12 14; value = 51.9 a.u.
Modification = 2'F-ANA at 1 2 5 6 8 9 10 11 12 14 15; value = 47.9 a.u.
Modification = 2'F-ANA at 1 4 7 8 9 13 14 15; value = 49.5 a.u.
Modification = 2'F-ANA at 1 3 5 7 10 12; value = 71.4 a.u.
Modification = 2'F-ANA at 3 5 10 11 12 13 14 15; value = 55.6 a.u.
Modification = 2'F-ANA at 2 5 7 9 10 11 13; value = 57.8 a.u.
Modification = 2'F-ANA at 1 3 4 5 6 7 10 11 13 14 15; value = 48.4 a.u.
Modification = 2'F-ANA at 1 2 3 6 8 9 12 13 15; value = 349 a.u.
Modification = 2'F-ANA at 1 2 3 9 11 14 15; value = 63.1 a.u.
Modification = 2'F-ANA at 2 5 8 10 11 12 13 15; value = 47.6 a.u.
Modification = 2'F-ANA at 1 2 4 6 9 11 13 15; value = 57.8 a.u.
Modification = 2'F-ANA at 1 2 3 4 5 8 10 11 13 15; value = 49.6 a.u.
Modification = 2'F-ANA at 1 2 6 11 12; value = 255 a.u.
Modification = 2'F-ANA at 1 3 5 6 8 9 12 14; value = 50.7 a.u.
Modification = 2'F-ANA at 2 3 6 12 14; value = 421 a.u.
Modification = 2'F-ANA at 2 3 5 7 9 11 13 15; value = 69.6 a.u.
Modification = 2'F-ANA at 1 2 3 6 8 9 10 12 13 14 15; value = 54.5 a.u.
Modification = 2'F-ANA at 2 4 7 8 12 13 14; value = 155 a.u.
Modification = 2'F-ANA at 1 4 6 9; value = 163 a.u.
Modification = 2'F-ANA at 2 5 8 9 12 13 15; value = 98 a.u.
Modification = 2'F-ANA at 1 2 4 5 6 8 13 15; value = 53.3 a.u.

Sample 5 — target: CCNA1, cyclin fold, Cln2 fusion (human); technique: yeast growth competition, sequencing; matrix: yeast; notes: weak parent motif; reference: not given; reading: higher = stronger binding; measurement: normalised enrichment score
Starting sequence: PKN2 docking peptide (human); VSAVQKLDFSDTM
Substitution = L7W; value = 0.295
Substitution = K6N; value = 0.366
Substitution = S2C; value = -0.00327
Substitution = L7S; value = -0.0231
Substitution = V1I; value = 0.145
Substitution = D11S; value = 0.236
Substitution = D8H; value = 0.0604
Substitution = S2M; value = 0.214
Substitution = M13W; value = 0.187
Substitution = L7A; value = 0.0484
Substitution = M13C; value = 0.134
Substitution = L7E; value = 0.281
Substitution = V4K; value = -0.0317
Substitution = K6I; value = 0.0719
Substitution = V4F; value = 0.178
Substitution = Q5A L7A; value = 0.422
Substitution = D8R; value = 0.308
Substitution = S10D; value = 0.245
Substitution = S2Y; value = -0.00621
Substitution = F9D; value = 0.23
Substitution = K6S; value = 0.388
Substitution = V4Q; value = 0.18
Substitution = V4T; value = -0.0456
Substitution = T12I; value = 0.0545
Substitution = V1D; value = -0.208

Single results of other studies
Substance = PhoQ, residues 284 288 289 292 302 303 SNGLAW; target = PhoP, residues 12 14 15 18 19 LQHIR (Escherichia coli, UniProt P23836); assay = Sort-seq, refers to: YFP reporter; system = E. coli; conditions = PhoQ-PhoP variant library, together with: 10 µM Mg2+; scale = reference: high Mg2+ state, higher = stronger signaling; measurement = fold induction; value = 4.52

Repeated from above (sample 3):
Substitution = A29S; value = -0.101 natural log
Substitution = S47R; value = 0.0761 natural log
Substitution = Q55M; value = -0.113 natural log
Substitution = S47T; value = -0.0352 natural log
Substitution = K39N; value = -0.612 natural log
Substitution = E54A; value = -0.129 natural log
Substitution = A46S; value = -0.0883 natural log
Substitution = L45R; value = -1.14 natural log
Substitution = E32F; value = -0.415 natural log
